Experimental data pooled from the literature.
Compare with care: the assays were run in different laboratories. “And” joins repeats or separate records; there may be more than shown.
Target: Mitogen-activated protein kinase 9 (MAPK9, Homo sapiens, UniProt P45984)

Compound | test | test system | conditions | how to read | quantity | result
CNC1C[S+]2CC[S+]3CC[S+](C1)[Ru-4]321([N]=C=S)[n]2c3ccc(OC)cc3c3c4c(c5cc(F)c[n+]1c5c32)C(=O)NC4=O (centres unmarked) | KinomeScan |  | 0.1 µM | relative to: untreated | remaining binding | 96%
Cc1cccc(O[C@H]2CCC[C@@H](C(C)CNCc3ccncc3)C2)c1 (relative stereo) | kinase activity, kinome panel screening |  | 10 µM |  | inhibition | -1%
Cc1cccc(-c2ccc3nc(NC(=O)C4CCCCC4)nn3c2)c1 | enzyme activity, Dundee kinase panel |  | 10 µM |  | remaining activity | 82%
COc1c(Cl)cccc1Nc1c(-c2ccncc2C#C[C@@]2(C)CCCN2C(=O)/C=C/CN(C)C)[nH]c2c1C(=O)NCC2 | cell-free assay, competition with immobilised ligand |  | 3 µM |  | remaining binding | 0%
Cc1cc(NC(=O)c2cccc(N)c2)ccc1Nc1nccc(-c2cccnc2)n1 | enzyme activity, inhibitor |  | 0.06097 µM, unit not given | relative to: vehicle | remaining activity | 0.979
Cc1ccc(-c2c(/C=C(\C#N)C(=O)NC(C)C)n(CCCO)c3ncnc(N)c23)cc1 | cell-free assay, competition with immobilised ligand |  | 1 µM |  | remaining binding | 96%
C=C1CCCCCCCCCC(CO)C1=O (centres unmarked) | cell-free assay, competition with immobilised ligand |  | 10 µM |  | remaining binding | 100%
N[C@H]1CC[C@H](Nc2nccc(-c3cccnc3Oc3ccc(NC(=O)NC4CC4)c4ccccc34)n2)CC1 | kinobead competition pulldown | HEK293/HCT116 lysate mixture | 10 µM, 1 h, 4 °C | lower = stronger competition | log2 LFQ intensity | 22.7 and 22.5 and 19.9 and 23.7
CN1CCN(Cc2ccc(NC(=O)c3cccc(C#Cc4cnc(N)c5ncccc45)c3)cc2C(F)(F)F)CC1 | cell-free assay, competition with immobilised ligand |  | 50 nM |  | remaining binding | 42%
NC(=O)[C@@H](O)C[C@H]1CCc2sc3ncnc(O[C@H]4CC[C@H](N5CCOCC5)CC4)c3c21 | enzyme activity, inhibitor |  | 10 µM |  | inhibition | -3%
COc1cc(Nc2nc(C)cc(-c3cnn4nc(OC)ccc34)n2)cc(C(F)(F)F)c1 | KINOMEscan |  | 1 µM, JNK2 | relative to: DMSO | remaining binding | 82%
CC(=O)N1c2ccc(-c3ccc(CNC(=O)c4cn5cc(-c6cnc(N)nc6)nc(N6CCOCC6)c5n4)cc3)cc2CC[C@@H]1C | KINOMEscan |  | 10 µM |  | remaining binding | 63%
C#CCOC(=O)[C@]1(C)C=C(C(=O)Nc2cccc(C(=O)Nc3ccc(C)c(Nc4nccc(-c5cccnc5)n4)c3)c2)C(=O)CC1 | enzyme activity, inhibitor |  | 0.02032 µM, unit not given | relative to: vehicle | remaining activity | 0.818
CCn1cc(C(=O)O)c(=O)c2c(N)c(F)c(NC3CCCCC3)cc21 | kinase activity |  | 0.1 µM, added: ATP at Km |  | inhibition | 8.4%
COC(=O)[C@@]1(C)C=C(C(=O)Nc2cccc(C(=O)Nc3ccc(Nc4nccc(-c5cccnc5)n4)c(C)c3)c2)C(=O)CC1 | enzyme activity, inhibitor |  | 0.1829 µM, unit not given | relative to: vehicle | remaining activity | 0.393
COc1ccc(NC(=O)Nc2ccc3c(c2)C(=O)N(C(C)CO)CC(C)C(CN(C)Cc2ccc4c(c2)OCO4)O3)cc1 (centres unmarked) | binding, competition with immobilised ligand |  | 10 µM |  | remaining binding | 89%
C=CC(=O)Nc1cccc(-c2cnc3[nH]cc(C(=O)NC(C)(C)C)c3n2)c1 | kinase activity |  | 0.1 µM |  | inhibition | -13% and 1%
O=C(Cc1ccc(OCc2ccccc2)cc1)NC1(C(=O)O)CCN(C(=O)c2ccc(-c3cccc(Cl)c3)cc2)CC1 | enzyme activity, inhibitor |  | 10 µM |  | activity vs control | 94%
CNC(=O)C[C@H](Cc1ccc(C#N)cc1)NC(=O)c1cc(-c2ccc(CN[C@H](C)c3ccc(C)cc3)o2)ccc1Cl | enzyme activity, inhibitor |  | 1 µM |  | activity vs control | 94%
Cc1cnc2nc1Nc1cccc(c1)COC/C=C/COCc1cc(ccc1OCCN1CCOCC1)N2 | cell-free assay |  | 0.1 µM |  | remaining signal | 60%
